Measurements of several laboratories.
Every numbered part comes from another study and shows a few of its results, in no order.

Block 1 — species: mouse; sample: microsomes or S9; tested at: 2 µM; time: 0.5 h; quantity: remaining compound
Structure (SMILES) = CCOc1cc(=O)n2c(c1C(=O)NC1CCCC1)CCCCC2; result = 49%
Structure (SMILES) = COc1c(Cl)c(-c2cc(C3(O)CCCCC3)on2)c(OC)c2c1OCO2; result = 1.23%
Structure (SMILES) = CC1C(OC(=O)C2=CN3CCS(=O)(=O)N=C3C=C2)CC2CC1C2(C)C (centres unmarked); result = 3.18%
Structure (SMILES) = Cc1nnc2n1CC1CCC(C2)N1C(=O)c1cccc2[nH]ccc12 (centres unmarked); result = 87%
Structure (SMILES) = CCN1CCCC1CN(Cc1cccnc1)Cc1cccc(Oc2ncccn2)c1 (centres unmarked); result = 4.34%

Block 2 — technique: PRP chromatography estimate; sample: 1,9-decadiene/PBS; pH: 7.4; quantity: logD
Structure (SMILES) = CC(C)C[C@@H]1NC(=O)[C@H](Cc2cscn2)NC(=O)[C@H](CCC(=O)N2CCCC2)NC(=O)[C@H](CC(C)C)NC(=O)[C@@H](CCC(=O)N2CCCC2)NC(=O)[C@H](CC(C)C)NC(=O)[C@@H](CC(C)C)NC1=O; result = -1.29
Structure (SMILES) = CC(C)C[C@@H]1NC(=O)[C@@H](C)NC(=O)[C@H](Cc2cscn2)NC(=O)[C@H](C)NC(=O)[C@H](C(C)C)NC(=O)[C@H](CC(C)C)NC(=O)[C@@H](CC(C)C)NC1=O; result = -2
Structure (SMILES) = CCOC(=O)[C@@H]1CSCC(=O)N[C@H](CC)C(=O)N(C)[C@@H](C)C(=O)N[C@@H](CC(C)C)C(=O)N2CCC[C@H]2C(=O)N(CC)CC(=O)N[C@H](CC(C)C)C(=O)N(C)[C@H](C)C(=O)N[C@@H](CC(C)C)C(=O)N1C; result = -0.527
Structure (SMILES) = CCC[C@H]1NC(=O)CSC[C@@H](C(=O)OCC)N(C)C(=O)[C@H](CC(C)C)NC(=O)[C@@H](C)N(C)C(=O)[C@H](CC(C)C)NC(=O)[C@H](C)N(C)C(=O)[C@@H]2CCCN2C(=O)[C@@H](CC(C)C)NC(=O)CN(C)C1=O; result = -0.724

Single results of other studies
Compound = O=C(O)[C@H]1[C@H](Cn2nnc3ccccc3c2=O)CC[C@@H]1C(=O)c1ccc(OCCC2CCOCC2)cc1; cell line = sample G normal colon organoids; test = CellTiter-Glo; system = human patient-derived organoids; setting = 0.1 µM, 4 days; scale = reference: DMSO control; quantity = viability; result = 135%
Compound = CC(C)S(=O)(=O)c1ccc2nccc(Nc3ccc4sc(C5CCCC5)nc4c3)c2c1; cell line = HT-29; test = necroptosis; setting = with: TNF-α; quantity = EC50; result = 0.854 µM

Repeated from above (block 2):
Structure (SMILES) = CC(C)C[C@@H]1NC(=O)[C@@H](C)NC(=O)[C@H](Cc2cscn2)NC(=O)[C@H](C)NC(=O)[C@H](C(C)C)NC(=O)[C@H](CC(C)C)NC(=O)[C@@H](CC(C)C)NC1=O; result = -2
